Assay results from different studies.
Numbered parts are unrelated; each lists some results of a single study. Substitutions count along the parent as printed.

Sample 1
Target: RNA binding protein fox-1 homolog 2, RRM domain, GST-SBP tag (RBFOX2, Homo sapiens, UniProt O43251-10, residues 100-194)
Method: RNA Bind-n-Seq
Form: RNA
Medium: in vitro
Tested at: 365 nM
Setting: natural RNA segment, single round, ends assumed
Relative to: no-protein control
Direction: higher = stronger binding
Target sequence (chain): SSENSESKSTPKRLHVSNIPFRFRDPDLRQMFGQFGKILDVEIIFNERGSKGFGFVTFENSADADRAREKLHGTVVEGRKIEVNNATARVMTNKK
Sequence	RBNS enrichment (R)
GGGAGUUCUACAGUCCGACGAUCCAUCCCAAACCCACCUCUUGUCUCCAGCCAUGCCCAGGAUCAAUUCUAGAAUCAGAGGCUACCCCUGCCUGUGUGGGGAGGGCCUUUGCUGGCAAGAGAAGCUCAGGCUCUGGAAUUCUCGGGUGCCAA	0.397
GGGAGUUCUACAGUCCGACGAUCAGUGCCCGCUGACUGCUGCCGCCACCUCUGUCUCGCUCCCUGUCAGUGCUGCUGGCACGUGGGACGCGGCAGGUGACAGCCGUUCUCAGCAUGUUUUAGAAGCUUGCCUCUGGAAUUCUCGGGUGCCAA	0.351
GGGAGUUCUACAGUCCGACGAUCAAGAGUUCUUAAUAUAUUCUGGAUACAAGUCCUUUUAAGACAUGAUUUGCAAAUAUUUUCUCCCAGUCUGUGGCUUAUCUUUUCCUAAUGGUGUCUUUUGAAAUGCACUUUGGAAUUCUCGGGUGCCAA	0.5
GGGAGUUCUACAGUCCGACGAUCAAAUUUUAAGUCUUCCAGUCUUCCAUGUGAACUUUAGGCCCAAAGUUUCUUAUGUAUCACACAUCCCCCAAAUAAGUGAUUUUUUCCCAGUGCUUUGUACUGUCAACUGCUGGAAUUCUCGGGUGCCAA	0.737
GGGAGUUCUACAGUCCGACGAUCAACUGCUCCUUGGUGGCCAUUAGAUCGAGUCAGUUUUGAUCUGCAUCACUUAGUUAUUGGGAAUUUCUUUGUUGGAAACAGGAAAAUUUUUUUAGAUUAUUUGGUGUACGUGGAAUUCUCGGGUGCCAA	0.321
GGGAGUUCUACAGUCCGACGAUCGGUGUUGGGUAGACACUGACAGUUGAGAGGGUCACCAGGGUGCCACUCUAGUGUGAAGUCCUCUUCUAGGGUAUCCUGGUGACUGUGGCUAGCCAAGGGGCCACUUCUUGUGGAAUUCUCGGGUGCCAA	0.344

Sample 2
Target: CCNB2, cyclin fold, Cln2 fusion (human)
Method: yeast growth competition, sequencing
Medium: yeast
Setting: weak parent motif
Relative to: not given
Direction: higher = stronger binding
Starting sequence: PKN2 docking peptide (human); VSAVRKLDFSDTM; partner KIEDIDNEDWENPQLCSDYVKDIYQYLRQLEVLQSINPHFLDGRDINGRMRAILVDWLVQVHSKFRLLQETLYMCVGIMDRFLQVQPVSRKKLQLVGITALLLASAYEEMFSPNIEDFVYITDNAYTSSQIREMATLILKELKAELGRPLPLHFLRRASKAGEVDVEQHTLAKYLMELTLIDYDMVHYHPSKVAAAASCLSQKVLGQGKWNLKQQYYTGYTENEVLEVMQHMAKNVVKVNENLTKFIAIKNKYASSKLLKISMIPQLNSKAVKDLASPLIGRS
Substitution	normalised enrichment score
VSAVRKLDYSDTM [F9Y]	-0.21
VSKVRKLDFSDTM [A3K]	0.333
VSAVRFLDFSDTM [K6F]	-0.00357
VSAVRKLDFSDVM [T12V]	0.72
VSAMRKLDFSDTM [V4M]	0.318

Sample 3
Target: RING finger protein unkempt homolog, zinc fingers 1-6, SBP tag (UNK, Homo sapiens, UniProt Q9C0B0, residues 30-357)
Sequence of UniProt Q9C0B0 (30-357, looked up): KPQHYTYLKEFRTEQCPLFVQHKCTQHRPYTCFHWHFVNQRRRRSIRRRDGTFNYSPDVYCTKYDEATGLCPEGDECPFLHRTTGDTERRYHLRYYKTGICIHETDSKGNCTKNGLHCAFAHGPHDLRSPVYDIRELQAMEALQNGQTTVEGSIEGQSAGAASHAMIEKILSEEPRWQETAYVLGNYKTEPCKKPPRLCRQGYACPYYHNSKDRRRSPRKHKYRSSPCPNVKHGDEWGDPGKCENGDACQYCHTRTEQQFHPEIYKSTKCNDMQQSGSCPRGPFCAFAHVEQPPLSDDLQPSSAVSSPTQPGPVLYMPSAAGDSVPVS
Method: RNA Bind-n-Seq
Form: RNA
Medium: in vitro
Tested at: 100 nM
Setting: RNA with constant flanks, vertebrate orthologous sites, ends assumed
Relative to: input RNA pool
Direction: higher = stronger binding
Sequence	bound/input enrichment [ratio]
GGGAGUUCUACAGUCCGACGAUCCUCCUCUUAAUCCCAUUUCAUCUGUUUCAUAGUGCUGAAAUUCCACCAUCAGCCUUAUUUUUAGUGAACUUAUUCUAAUUCUAGCGAAACUUCCAGCGUGGAUACUGUGAGCUAUAUGGACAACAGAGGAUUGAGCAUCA	2.37
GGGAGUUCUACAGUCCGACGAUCUACAGGGAGAACUCACAAACUCAAAGGAAAGCUAUGAAAGAGUUUCUAAUAGAUAAAAGCUAGGAAAGAUUAGGACACUUUACAAAUGAGAAAUUAAAAAUAAAACAAAAGAAAAAGGAUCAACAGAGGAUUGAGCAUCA	0.738
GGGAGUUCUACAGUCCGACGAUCCGUGCUUAUGCUCUUCUAUGAAAGAGAUGAACUGGGGAGAACUGUCUCCUUUUUAUAGGUUAGUUUCUUUGUAAAUUAUGACCAAAAAUAUUUUGCUAUUUCUUUCUUUGUAUAUGGACACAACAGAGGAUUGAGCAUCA	0.677
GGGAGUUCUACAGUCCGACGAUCGUGUUGUGUACAGGGCAUUCUCUGUACUAGUUUGUUGUGGUUAUAAAACAGUUAGCAAAGCAGCCUACAUUUGUAUUUAUUUUCUAUUCCAUACUUCUGUGCCCCAUGUGUUUUUUCUUUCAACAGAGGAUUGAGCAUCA	1.47
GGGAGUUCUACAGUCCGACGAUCUGAAAGUUACAGACAAGAGUCUGAAAGUAGAAAUACAGGAUCCUGGUUGUCAUCAUCUCUAAGAAAUAGAUGUACACCUCUGUUCUCCAGAAGAAGGCGAGAAGGAAGAGAUGAAUCUGCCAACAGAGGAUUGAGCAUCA	0.342

Other studies, line by line
Substance	target	assay	test system	setting	how to read	measurement	value
PhoQ, residues 284 288 289 292 302 303 GANMMA	PhoP, residues 12 14 15 18 19 SPWRL (Escherichia coli, UniProt P23836)	Sort-seq, item: YFP reporter	E. coli	PhoQ-PhoP variant library, together with: 10 µM Mg2+	relative to: high Mg2+ state, higher = stronger signaling	fold induction	0.737
